Measurements pooled from the literature.
Lines come from different studies, so protocols differ. Numbers after ± are the reported error.
TNS3 SH2 domain: Tensin-3, SH2 domain (TNS3, Homo sapiens, UniProt Q68CZ2)
Sequence of UniProt Q68CZ2 (whole entry, looked up): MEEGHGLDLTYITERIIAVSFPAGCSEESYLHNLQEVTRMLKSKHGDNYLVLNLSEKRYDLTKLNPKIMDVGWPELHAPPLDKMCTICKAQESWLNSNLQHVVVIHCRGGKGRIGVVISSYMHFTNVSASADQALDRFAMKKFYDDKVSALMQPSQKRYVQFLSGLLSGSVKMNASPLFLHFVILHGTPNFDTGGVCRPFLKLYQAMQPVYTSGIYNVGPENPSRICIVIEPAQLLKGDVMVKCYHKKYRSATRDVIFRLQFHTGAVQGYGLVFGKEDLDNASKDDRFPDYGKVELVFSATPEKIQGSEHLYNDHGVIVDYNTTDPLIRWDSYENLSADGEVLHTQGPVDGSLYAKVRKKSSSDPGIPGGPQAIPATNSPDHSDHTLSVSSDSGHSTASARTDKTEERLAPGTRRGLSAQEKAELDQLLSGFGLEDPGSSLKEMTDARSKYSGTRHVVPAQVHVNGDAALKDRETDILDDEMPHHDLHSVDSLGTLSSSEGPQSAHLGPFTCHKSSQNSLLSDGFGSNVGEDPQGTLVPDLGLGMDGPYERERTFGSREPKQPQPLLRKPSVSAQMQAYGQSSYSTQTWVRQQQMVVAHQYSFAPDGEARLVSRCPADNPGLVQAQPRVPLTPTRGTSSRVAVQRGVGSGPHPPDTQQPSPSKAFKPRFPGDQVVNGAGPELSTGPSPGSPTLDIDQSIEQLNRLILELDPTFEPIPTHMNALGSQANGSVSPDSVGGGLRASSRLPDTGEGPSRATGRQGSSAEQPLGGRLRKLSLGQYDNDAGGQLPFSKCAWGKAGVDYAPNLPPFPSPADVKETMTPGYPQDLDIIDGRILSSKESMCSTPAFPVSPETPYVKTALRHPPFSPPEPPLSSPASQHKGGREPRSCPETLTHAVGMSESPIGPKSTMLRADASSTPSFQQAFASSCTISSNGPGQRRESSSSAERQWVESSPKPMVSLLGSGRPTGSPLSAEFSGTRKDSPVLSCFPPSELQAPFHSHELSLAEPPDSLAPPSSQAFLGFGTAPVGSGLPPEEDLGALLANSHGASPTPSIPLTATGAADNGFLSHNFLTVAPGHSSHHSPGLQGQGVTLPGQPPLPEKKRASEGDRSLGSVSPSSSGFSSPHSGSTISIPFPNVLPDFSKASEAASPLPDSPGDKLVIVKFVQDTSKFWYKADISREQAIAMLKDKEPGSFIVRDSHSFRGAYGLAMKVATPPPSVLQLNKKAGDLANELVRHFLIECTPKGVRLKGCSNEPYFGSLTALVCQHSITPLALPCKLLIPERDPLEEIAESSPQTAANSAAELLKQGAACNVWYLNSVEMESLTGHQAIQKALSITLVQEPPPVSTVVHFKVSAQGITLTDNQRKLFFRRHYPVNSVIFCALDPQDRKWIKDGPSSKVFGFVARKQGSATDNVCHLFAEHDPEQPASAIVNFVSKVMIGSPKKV
ABL2 SH2 domain: Tyrosine-protein kinase ABL2, SH2 domain (ABL2, Homo sapiens, UniProt P42684)
Sequence of UniProt P42684 (whole entry, looked up): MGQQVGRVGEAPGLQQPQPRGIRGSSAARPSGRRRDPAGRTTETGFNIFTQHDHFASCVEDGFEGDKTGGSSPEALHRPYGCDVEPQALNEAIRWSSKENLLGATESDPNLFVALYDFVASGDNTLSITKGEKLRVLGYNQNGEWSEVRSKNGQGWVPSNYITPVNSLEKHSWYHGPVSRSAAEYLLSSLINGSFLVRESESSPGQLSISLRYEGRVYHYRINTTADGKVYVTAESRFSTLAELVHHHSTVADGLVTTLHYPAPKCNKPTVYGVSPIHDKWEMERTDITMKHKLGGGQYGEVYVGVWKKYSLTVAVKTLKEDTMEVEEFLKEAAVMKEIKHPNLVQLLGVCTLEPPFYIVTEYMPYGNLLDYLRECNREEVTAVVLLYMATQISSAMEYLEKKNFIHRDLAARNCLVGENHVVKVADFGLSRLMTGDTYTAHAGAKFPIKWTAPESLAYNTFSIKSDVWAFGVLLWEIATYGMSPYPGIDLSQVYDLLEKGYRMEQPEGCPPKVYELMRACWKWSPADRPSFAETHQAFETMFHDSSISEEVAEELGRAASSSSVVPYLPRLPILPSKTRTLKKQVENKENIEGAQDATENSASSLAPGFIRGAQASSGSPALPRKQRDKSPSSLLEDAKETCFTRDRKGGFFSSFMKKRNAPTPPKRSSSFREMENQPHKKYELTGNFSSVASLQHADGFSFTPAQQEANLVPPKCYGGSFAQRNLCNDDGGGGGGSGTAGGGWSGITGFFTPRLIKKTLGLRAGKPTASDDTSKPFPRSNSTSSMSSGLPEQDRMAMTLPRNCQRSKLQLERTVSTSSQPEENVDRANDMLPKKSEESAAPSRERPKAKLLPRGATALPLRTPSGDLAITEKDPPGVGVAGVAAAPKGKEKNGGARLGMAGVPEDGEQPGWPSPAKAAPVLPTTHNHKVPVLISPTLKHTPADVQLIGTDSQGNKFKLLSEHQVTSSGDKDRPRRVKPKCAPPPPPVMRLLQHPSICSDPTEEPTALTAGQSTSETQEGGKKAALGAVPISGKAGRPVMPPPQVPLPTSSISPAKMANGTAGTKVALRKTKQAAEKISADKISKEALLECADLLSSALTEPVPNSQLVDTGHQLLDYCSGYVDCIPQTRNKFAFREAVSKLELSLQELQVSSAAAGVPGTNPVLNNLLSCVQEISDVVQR
Sequence of UniProt Q7Z569 (whole entry, looked up): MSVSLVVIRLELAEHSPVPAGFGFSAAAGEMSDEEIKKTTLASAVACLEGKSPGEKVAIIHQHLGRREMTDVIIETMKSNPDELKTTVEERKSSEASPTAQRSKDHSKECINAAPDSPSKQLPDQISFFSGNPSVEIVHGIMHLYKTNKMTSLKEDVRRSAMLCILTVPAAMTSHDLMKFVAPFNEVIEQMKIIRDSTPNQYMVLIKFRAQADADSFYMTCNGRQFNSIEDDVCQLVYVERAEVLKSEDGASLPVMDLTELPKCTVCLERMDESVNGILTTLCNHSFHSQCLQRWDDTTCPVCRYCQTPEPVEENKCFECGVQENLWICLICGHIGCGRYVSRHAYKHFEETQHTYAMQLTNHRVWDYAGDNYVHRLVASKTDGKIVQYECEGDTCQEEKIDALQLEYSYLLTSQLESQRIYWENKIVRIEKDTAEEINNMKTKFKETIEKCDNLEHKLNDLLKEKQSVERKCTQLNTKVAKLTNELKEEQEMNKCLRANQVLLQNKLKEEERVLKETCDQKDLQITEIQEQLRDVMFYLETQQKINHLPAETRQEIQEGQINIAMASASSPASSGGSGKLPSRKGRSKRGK
Sequence of UniProt Q16548 (whole entry, looked up): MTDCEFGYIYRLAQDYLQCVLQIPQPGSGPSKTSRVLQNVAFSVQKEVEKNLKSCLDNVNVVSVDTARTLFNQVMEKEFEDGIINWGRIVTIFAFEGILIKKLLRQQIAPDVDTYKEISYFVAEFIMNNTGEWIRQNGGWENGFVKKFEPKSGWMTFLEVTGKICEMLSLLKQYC
Sequence of UniProt P28796 (whole entry, looked up): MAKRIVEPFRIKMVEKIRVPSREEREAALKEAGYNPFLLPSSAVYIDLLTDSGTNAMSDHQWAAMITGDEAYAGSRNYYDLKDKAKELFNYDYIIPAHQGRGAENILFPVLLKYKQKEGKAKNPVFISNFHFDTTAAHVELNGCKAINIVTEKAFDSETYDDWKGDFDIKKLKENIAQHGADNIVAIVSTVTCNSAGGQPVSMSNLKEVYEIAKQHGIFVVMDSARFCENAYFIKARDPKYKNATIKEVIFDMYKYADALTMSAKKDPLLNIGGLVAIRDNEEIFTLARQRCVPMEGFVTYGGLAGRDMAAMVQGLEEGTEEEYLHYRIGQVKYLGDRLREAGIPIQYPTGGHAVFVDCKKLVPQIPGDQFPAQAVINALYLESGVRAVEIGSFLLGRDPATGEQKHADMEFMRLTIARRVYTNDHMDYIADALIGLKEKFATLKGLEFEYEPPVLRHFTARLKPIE
Sequence of UniProt O75676 (whole entry, looked up): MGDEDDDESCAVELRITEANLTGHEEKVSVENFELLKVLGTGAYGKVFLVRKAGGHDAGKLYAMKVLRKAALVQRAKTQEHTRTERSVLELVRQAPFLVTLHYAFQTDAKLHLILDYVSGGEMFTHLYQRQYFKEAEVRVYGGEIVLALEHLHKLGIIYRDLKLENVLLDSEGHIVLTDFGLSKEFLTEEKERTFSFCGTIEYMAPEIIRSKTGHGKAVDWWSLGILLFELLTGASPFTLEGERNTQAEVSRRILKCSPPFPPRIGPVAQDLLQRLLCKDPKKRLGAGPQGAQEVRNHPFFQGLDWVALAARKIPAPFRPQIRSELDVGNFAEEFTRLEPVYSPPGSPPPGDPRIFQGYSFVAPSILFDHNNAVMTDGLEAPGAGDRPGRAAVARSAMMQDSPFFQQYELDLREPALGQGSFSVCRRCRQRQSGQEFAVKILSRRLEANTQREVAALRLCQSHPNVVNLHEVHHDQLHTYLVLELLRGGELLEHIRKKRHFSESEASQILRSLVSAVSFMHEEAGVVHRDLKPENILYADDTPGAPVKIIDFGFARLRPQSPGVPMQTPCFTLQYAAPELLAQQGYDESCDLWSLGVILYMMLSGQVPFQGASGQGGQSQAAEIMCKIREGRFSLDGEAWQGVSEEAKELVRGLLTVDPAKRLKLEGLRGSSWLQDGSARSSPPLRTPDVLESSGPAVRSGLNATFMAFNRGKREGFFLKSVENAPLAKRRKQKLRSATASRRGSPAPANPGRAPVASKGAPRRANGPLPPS

Structure (SMILES)	target	test	test system	setting	Kd
CC[C@H](C)[C@H](NC(=O)[C@H](CNC(=O)CCl)NC(C)=O)C(=O)N[C@@H](C)C(=O)N[C@@H](CCC(N)=O)C(=O)N[C@@H](CCC(=O)O)C(=O)N[C@@H](CC(C)C)C(=O)N[C@@H](CCCNC(=N)N)C(=O)N[C@@]1(C)CCC/C=C\CCC[C@@](C)(C(=O)N[C@@H](Cc2ccccc2)C(=O)N[C@@H](CC(N)=O)C(=O)N[C@@H](C)C(=O)N[C@@H](Cc2ccc(O)cc2)C(=O)N[C@@H](Cc2ccc(O)cc2)C(=O)N[C@@H](C)C(=O)N[C@@H](CCCNC(=N)N)C(=O)N[C@@H](CCCNC(=N)N)C(N)=O)NC(=O)[C@H](CC(=O)O)NC(=O)CNC(=O)[C@H]([C@@H](C)CC)NC1=O	Bcl-2-related protein A1 (Homo sapiens, UniProt Q16548)	isothermal titration calorimetry	–	25 °C, 10% DMSO	no binding
O=C(O)CNC(=O)c1cccnc1	BRCA1-associated protein, ZnF-UBD domain (BRAP, Homo sapiens, UniProt Q7Z569)	–	–	–	> 1000 µM
CC(=O)N[C@H]1[C@@H](O[C@H]2[C@@H](O)[C@@H](CO)OC(O)[C@@H]2O[C@@H]2O[C@@H](C)[C@@H](O)[C@@H](O)[C@@H]2O)O[C@H](CO)[C@H](O)[C@@H]1O (stereo partly drawn)	Vicia villosa lectin	binding	–	2 h	> 2.24 µM
CCCCCCCCCC(=O)NC1CCCC1	qscR, DNA-bound (Pseudomonas aeruginosa, UniProt G3XD77)	DNA binding, ligand, EMSA	–	4 °C, saturating ligand	0.00834 µM
CC(C)C[C@H](NC(=O)[C@@H](NC(=O)[C@H](CO)NC(=O)[C@H](CO)NC(=O)[C@@H](NC(=O)[C@H](CC(=O)O)NC(=O)[C@H](CC(C)C)NC(=O)[C@@H]1CCCN1C(=O)[C@H](CO)NC(=O)c1ccc2c(c1)C(=O)OC21c2ccc(N(C)C)cc2Oc2cc(N(C)C)ccc21)[C@@H](C)O)C(C)C)C(=O)N[C@@H](Cc1ccc(OP(=O)(O)O)cc1)C(=O)N[C@H](C(=O)N[C@@H](C)C(=O)N[C@H](C(=O)N[C@@H](CCC(N)=O)C(=O)N1CCC[C@H]1C(=O)N[C@@H](CC(N)=O)C(=O)N[C@@H](CCC(=O)O)C(=O)N[C@@H](CC(=O)O)C(=O)O)C(C)C)[C@@H](C)O	TNS3 SH2 domain	binding	–	–	0.966 µM
N=C(N)NCCC[C@H](N)C(=O)O	uncharacterized protein (Pelagibacter ubique, UniProt Q4FLC2)	isothermal titration calorimetry	Candidatus Pelagibacter ubique	displacement titration, added: octopine competitor 250 µM	1.75e-05 µM
CC(=O)N[C@H]1[C@@H](O[C@H](C)[C@H](NC(C)=O)C(=O)N[C@H](C(=O)N[C@H](C(=O)NCC(=O)O)[C@@H](C)O[C@H]2O[C@H](CO)[C@H](O)[C@H](O)[C@H]2NC(C)=O)[C@@H](C)O[C@H]2O[C@H](CO)[C@H](O)[C@H](O)[C@H]2NC(C)=O)O[C@H](CO)[C@H](O)[C@@H]1O	Vicia villosa lectin	glycan microarray	–	20 glycans per BSA	0.0003 ± 0.0001 µM
C[C@H](N)C(=O)O	tnaA (Proteus vulgaris, UniProt P28796)	–	–	–	17100 ± 400 µM
CC(C)C[C@H](NC(=O)[C@H](CO)NC(=O)[C@H](CO)NC(=O)CNC(=O)[C@@H]1CCCN1C(=O)[C@H](Cc1ccc(O)cc1)NC(=O)[C@H](CC(C)C)NC(=O)[C@H](CO)NC(=O)[C@H](CS)NC(=O)[C@H](CC(C)C)NC(=O)[C@H](CC(C)C)NC(=O)CCCCCNC(=S)Nc1ccc2c(c1)C(=O)OC21c2ccc(O)cc2Oc2cc(O)ccc21)C(=O)O	Epidermal growth factor receptor, extracellular domain (EGFR, Homo sapiens, UniProt P00533)	binding, fluorescence polarization	EGFR extracellular domain	20 min, room temperature	0.327 µM
C[C@H]1[C@H](NC(=O)/C(=N\OC(C)(C)C(=O)O)c2csc(N)n2)C(=O)N1S(=O)(=O)O	Beta-lactamase CTX-M (blaUOE-1, Escherichia coli, UniProt Q9EXV5)	binding, surface plasmon resonance	–	–	62 µM
CSCC[C@H](NC(=O)CNC(=O)[C@H](Cc1ccccc1)NC(=O)[C@H](CC(=O)O)NC(=O)CNC(=O)c1ccc2c(c1)C(=O)OC21c2ccc(N(C)C)cc2Oc2cc(N(C)C)ccc21)C(=O)N[C@@H](CO)C(=O)N[C@@H](CCCNC(=N)N)C(=O)N[C@@H](CC(=O)O)C(=O)N[C@H](C(=O)N[C@@H](Cc1ccc(OP(=O)(O)O)cc1)C(=O)N[C@@H](CO)C(=O)N[C@H](C(=O)N[C@@H](CC(=O)O)C(=O)N[C@@H](Cc1ccc(O)cc1)C(=O)N[C@@H](Cc1ccc(O)cc1)C(=O)N[C@@H](CCCNC(=N)N)C(=O)N[C@H](C(=O)N[C@@H](CC(=O)O)C(=O)O)C(C)C)[C@@H](C)O)C(C)C	Breast cancer anti-estrogen resistance protein 3, SH2 domain (BCAR3, Homo sapiens, UniProt O75815)	binding	–	–	1.69 µM
O=C(CCCOc1ccc(Cl)cc1)NC1CCOC1=O (stereo not drawn)	qscR, DNA-bound dimer (Pseudomonas aeruginosa, UniProt G3XD77)	ligand binding, FRET displacement	–	protein with DNA	0.00101 µM
CC[C@H](C)[C@H](NC(=O)[C@H](CC(=O)O)NC(=O)[C@H](C)NC(=O)[C@H](Cc1ccc(OP(=O)(O)O)cc1)NC(=O)[C@H](CCCCN)NC(=O)[C@@H](NC(=O)[C@H](CC(=O)O)NC(=O)CNC(=O)[C@H](CCCCN)NC(=O)[C@H](CCSC)NC(=O)[C@H](CC(=O)O)NC(=O)[C@H](CC(C)C)NC(=O)[C@H](CCSC)NC(=O)c1ccc2c(c1)C(=O)OC21c2ccc(N(C)C)cc2Oc2cc(N(C)C)ccc21)C(C)C)C(=O)N[C@@H](CCC(=O)O)C(=O)N[C@@H](CO)C(=O)N[C@@H](CO)C(=O)N[C@@H](CC(N)=O)C(=O)N[C@@H](CC(=O)O)C(=O)O	ABL2 SH2 domain	binding	–	–	0.108 µM
CC[C@H](CO)Nc1nc(NCc2ccc(-c3ccccn3)cc2)c2ncn(C(C)C)c2n1	Ribosomal protein S6 kinase alpha-4 (RPS6KA4, Homo sapiens, UniProt O75676)	binding, competition affinity chromatography	SH-SY5Y cell extract	–	2.29 µM
CC(C)C[C@H](NC(=O)[C@H](Cc1ccc(OP(=O)(O)O)cc1)NC(=O)[C@H](CCC(=O)O)NC(=O)[C@H](C)NC(=O)[C@H](CC(N)=O)NC(=O)[C@H](CCC(=O)O)NC(=O)[C@H](C)NC(=O)[C@@H](NC(=O)[C@H](CO)NC(=O)CNC(=O)[C@H](CCCCN)NC(=O)c1ccc2c(c1)C(=O)OC21c2ccc(N(C)C)cc2Oc2cc(N(C)C)ccc21)[C@@H](C)O)C(=O)N[C@@H](CCCNC(=N)N)C(=O)N[C@H](C(=O)N[C@@H](C)C(=O)N1CCC[C@H]1C(=O)N[C@@H](CCC(N)=O)C(=O)N[C@@H](CO)C(=O)N[C@@H](CC(=O)O)C(=O)O)C(C)C	ABL2 SH2 domain	binding	–	–	0.214 µM
Nc1ncnc2c1ncn2[C@@H]1O[C@H](COP(=O)(O)OP(=O)(O)OP(=O)(O)O)[C@@H](O)[C@H]1O	matB (Rhodopseudomonas palustris, UniProt Q6ND88, C106A/K488A/Q457C/R286C)	binding	–	pH 7.0, 200 mM NaCl	19 ± 1 µM
CC[C@H](C)[C@H](NC(=O)[C@H](Cc1ccc(OP(=O)(O)O)cc1)NC(=O)[C@H](CCC(=O)O)NC(=O)[C@H](Cc1c[nH]cn1)NC(=O)CNC(=O)[C@H](CC(=O)O)NC(=O)[C@H](CO)NC(=O)[C@H](CO)NC(=O)[C@@H](NC(=O)[C@H](CO)NC(=O)[C@H](CCC(=O)O)NC(=O)c1ccc2c(c1)C(=O)OC21c2ccc(N(C)C)cc2Oc2cc(N(C)C)ccc21)C(C)C)C(=O)N[C@@H](Cc1ccc(O)cc1)C(=O)N[C@H](C(=O)N[C@@H](CC(=O)O)C(=O)N1CCC[C@H]1C(=O)N[C@@H](CCSC)C(=O)N[C@@H](CCC(N)=O)C(=O)N[C@@H](CC(=O)O)C(=O)O)C(C)C	TNS3 SH2 domain	binding	–	–	1.4 µM
CCCCCCCCCCCCCC(=O)O[C@@H]1[C@@H](C)[C@@]2(O)[C@@H](C=C(CO)C[C@]3(O)C(=O)C(C)=C[C@@H]23)[C@@H]2C(C)(C)[C@]12OC(C)=O	protein kinase C C1 domain	binding, microscale thermophoresis	–	–	0.19 µM

For quick reference, copied from above:
Structure (SMILES)	target	test	test system	setting	Kd
CCCCCCCCCC(=O)NC1CCCC1	qscR, DNA-bound (Pseudomonas aeruginosa, UniProt G3XD77)	DNA binding, ligand, EMSA	–	4 °C, saturating ligand	0.00834 µM
